Published values from different studies.
Each line is one published result; not all experiments were run side by side. ± gives the spread as reported.
Ectonucleoside triphosphate diphosphohydrolase 3: Ectonucleoside triphosphate diphosphohydrolase 3 (Homo sapiens, UniProt O75355)
UniProt O75355, sequence (whole entry, looked up): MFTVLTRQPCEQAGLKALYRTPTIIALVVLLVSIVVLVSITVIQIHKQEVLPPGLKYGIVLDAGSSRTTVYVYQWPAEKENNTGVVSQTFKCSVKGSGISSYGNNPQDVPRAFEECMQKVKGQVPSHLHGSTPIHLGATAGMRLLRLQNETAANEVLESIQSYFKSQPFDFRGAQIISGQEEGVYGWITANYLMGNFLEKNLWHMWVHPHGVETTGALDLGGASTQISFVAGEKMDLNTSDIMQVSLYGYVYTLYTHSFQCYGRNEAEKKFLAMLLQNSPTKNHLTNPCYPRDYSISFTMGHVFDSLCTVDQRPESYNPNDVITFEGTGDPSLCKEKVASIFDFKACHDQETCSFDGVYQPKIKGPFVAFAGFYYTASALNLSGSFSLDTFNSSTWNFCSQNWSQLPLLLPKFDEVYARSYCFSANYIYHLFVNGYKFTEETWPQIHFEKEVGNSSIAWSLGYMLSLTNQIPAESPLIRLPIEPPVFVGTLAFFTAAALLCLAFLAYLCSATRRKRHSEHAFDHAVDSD
CDK4 with cyclin D3: Cyclin-dependent kinase 4, with cyclin D3 (CDK4, Homo sapiens, UniProt P11802)
UniProt P11802, sequence (whole entry, looked up): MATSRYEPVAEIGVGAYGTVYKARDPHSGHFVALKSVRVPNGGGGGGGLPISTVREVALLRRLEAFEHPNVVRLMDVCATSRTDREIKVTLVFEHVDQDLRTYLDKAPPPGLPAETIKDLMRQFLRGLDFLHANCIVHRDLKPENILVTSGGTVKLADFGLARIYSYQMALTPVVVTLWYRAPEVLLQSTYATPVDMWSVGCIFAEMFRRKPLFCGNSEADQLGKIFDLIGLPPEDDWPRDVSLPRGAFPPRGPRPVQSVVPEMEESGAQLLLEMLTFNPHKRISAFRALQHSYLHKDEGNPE
AKR1C2: Aldo-keto reductase family 1 member C2 (AKR1C2, Homo sapiens, UniProt P52895)
UniProt P52895, sequence (whole entry, looked up): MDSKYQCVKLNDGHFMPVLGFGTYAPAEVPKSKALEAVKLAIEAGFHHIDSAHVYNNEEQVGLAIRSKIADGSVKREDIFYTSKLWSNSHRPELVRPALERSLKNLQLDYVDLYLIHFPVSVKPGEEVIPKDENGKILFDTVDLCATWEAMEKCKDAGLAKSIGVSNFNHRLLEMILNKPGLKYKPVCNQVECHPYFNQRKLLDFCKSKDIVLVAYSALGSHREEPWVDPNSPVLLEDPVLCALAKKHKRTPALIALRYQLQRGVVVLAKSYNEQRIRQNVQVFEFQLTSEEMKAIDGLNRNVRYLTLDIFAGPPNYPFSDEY
AMY2: Pancreatic alpha-amylase (AMY2, Sus scrofa, UniProt P00690)
UniProt P00690, sequence (whole entry, looked up): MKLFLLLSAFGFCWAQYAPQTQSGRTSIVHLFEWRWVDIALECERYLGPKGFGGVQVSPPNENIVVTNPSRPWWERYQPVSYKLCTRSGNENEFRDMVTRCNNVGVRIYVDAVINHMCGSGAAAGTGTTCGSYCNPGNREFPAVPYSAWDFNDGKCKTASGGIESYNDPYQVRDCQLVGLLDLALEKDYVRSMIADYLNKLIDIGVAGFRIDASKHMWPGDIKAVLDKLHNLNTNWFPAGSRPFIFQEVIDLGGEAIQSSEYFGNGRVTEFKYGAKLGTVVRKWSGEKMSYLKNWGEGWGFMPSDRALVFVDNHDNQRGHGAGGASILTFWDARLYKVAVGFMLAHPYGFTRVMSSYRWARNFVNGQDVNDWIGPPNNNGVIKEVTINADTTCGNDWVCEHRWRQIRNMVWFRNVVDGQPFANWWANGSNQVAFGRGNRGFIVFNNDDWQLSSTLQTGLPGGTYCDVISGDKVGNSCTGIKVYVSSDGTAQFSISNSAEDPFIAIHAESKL
Sigmar1: Sigma non-opioid intracellular receptor 1 (Sigmar1, Rattus norvegicus, UniProt Q9R0C9)
UniProt Q9R0C9, sequence (whole entry, looked up): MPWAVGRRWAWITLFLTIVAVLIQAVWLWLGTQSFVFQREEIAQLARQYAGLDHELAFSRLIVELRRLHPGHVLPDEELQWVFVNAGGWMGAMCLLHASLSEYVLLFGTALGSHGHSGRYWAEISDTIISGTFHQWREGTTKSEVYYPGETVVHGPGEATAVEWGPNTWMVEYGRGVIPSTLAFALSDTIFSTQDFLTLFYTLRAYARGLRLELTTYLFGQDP
Tripartite terminase subunit 3 C-terminal nuclease domain: Tripartite terminase subunit 3, C-terminal nuclease domain (Human betaherpesvirus 5, UniProt P16732)
UniProt P16732, sequence (whole entry, looked up): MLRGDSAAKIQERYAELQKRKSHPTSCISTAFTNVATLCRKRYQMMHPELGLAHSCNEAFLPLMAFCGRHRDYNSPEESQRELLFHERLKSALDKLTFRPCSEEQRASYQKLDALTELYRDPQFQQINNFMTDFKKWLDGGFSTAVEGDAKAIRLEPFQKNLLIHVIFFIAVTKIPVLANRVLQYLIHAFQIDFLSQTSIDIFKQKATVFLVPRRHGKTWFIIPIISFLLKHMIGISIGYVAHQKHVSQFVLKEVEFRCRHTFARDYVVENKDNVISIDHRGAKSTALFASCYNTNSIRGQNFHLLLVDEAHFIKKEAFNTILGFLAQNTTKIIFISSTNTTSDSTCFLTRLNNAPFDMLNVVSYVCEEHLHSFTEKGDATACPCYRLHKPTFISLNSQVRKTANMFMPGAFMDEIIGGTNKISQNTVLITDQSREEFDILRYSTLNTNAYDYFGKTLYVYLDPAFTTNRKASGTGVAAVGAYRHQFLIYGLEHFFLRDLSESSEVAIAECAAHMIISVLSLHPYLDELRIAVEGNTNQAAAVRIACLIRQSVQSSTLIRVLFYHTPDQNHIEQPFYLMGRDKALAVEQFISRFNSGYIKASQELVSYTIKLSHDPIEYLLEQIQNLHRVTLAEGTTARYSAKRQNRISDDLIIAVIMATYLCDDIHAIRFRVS
ELANE: Neutrophil elastase (ELANE, Homo sapiens, UniProt P08246)
UniProt P08246, sequence (whole entry, looked up): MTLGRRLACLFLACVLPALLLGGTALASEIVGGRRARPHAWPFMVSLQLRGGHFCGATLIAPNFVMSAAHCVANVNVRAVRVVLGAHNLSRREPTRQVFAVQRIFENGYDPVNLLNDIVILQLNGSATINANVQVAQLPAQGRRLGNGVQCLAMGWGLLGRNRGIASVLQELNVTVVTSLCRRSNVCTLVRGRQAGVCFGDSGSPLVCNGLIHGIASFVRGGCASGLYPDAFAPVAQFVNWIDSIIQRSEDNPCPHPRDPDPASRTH
PNLIP: Pancreatic triacylglycerol lipase (PNLIP, Sus scrofa, UniProt P00591)
UniProt P00591, sequence (whole entry, looked up): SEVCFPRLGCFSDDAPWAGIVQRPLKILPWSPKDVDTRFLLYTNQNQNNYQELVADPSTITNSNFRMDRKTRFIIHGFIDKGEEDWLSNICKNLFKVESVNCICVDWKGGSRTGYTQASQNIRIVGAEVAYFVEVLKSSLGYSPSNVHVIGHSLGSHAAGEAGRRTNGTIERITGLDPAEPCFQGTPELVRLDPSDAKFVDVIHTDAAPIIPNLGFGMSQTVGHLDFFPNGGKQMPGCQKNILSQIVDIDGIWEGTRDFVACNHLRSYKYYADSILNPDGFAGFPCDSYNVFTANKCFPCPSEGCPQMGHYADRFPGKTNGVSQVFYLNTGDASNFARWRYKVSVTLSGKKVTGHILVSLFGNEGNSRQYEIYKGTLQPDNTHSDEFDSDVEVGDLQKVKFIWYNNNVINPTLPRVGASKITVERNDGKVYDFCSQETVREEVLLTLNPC
hdac10: Polyamine deacetylase HDAC10 (hdac10, Danio rerio, UniProt F1QCV2)
UniProt F1QCV2, sequence (whole entry, looked up): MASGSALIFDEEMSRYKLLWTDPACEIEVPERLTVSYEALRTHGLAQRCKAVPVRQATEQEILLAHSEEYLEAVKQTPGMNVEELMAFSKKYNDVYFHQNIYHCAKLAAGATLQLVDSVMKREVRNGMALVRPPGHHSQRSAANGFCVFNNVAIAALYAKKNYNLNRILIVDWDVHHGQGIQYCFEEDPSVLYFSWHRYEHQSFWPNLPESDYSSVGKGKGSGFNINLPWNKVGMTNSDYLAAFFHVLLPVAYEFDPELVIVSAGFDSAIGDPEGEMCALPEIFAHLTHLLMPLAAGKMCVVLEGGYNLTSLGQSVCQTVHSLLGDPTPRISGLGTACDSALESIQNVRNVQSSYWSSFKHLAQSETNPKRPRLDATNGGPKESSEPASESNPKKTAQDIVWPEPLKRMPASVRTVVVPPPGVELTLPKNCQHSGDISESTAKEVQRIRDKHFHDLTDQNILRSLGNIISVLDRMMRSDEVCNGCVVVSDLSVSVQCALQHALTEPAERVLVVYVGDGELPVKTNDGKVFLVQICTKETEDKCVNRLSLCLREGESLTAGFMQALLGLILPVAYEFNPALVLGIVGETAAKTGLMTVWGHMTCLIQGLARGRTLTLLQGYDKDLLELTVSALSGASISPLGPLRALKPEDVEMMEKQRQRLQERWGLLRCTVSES
PDK1: [Pyruvate dehydrogenase (acetyl-transferring)] kinase isozyme 1, mitochondrial (PDK1, Homo sapiens, UniProt Q15118)
UniProt Q15118, sequence (whole entry, looked up): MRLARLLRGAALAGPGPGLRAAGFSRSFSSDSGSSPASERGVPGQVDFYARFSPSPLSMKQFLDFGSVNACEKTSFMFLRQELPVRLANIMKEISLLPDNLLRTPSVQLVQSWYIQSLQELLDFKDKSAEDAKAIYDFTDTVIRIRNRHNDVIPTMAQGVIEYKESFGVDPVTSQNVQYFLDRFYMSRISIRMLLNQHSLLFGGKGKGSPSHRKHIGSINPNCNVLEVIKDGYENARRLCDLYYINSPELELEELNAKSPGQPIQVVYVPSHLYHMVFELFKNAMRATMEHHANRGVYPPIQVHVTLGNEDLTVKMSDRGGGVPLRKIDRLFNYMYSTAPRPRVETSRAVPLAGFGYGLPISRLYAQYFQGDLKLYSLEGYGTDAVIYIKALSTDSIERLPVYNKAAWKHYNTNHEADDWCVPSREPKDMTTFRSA
UniProt P27338, sequence (whole entry, looked up): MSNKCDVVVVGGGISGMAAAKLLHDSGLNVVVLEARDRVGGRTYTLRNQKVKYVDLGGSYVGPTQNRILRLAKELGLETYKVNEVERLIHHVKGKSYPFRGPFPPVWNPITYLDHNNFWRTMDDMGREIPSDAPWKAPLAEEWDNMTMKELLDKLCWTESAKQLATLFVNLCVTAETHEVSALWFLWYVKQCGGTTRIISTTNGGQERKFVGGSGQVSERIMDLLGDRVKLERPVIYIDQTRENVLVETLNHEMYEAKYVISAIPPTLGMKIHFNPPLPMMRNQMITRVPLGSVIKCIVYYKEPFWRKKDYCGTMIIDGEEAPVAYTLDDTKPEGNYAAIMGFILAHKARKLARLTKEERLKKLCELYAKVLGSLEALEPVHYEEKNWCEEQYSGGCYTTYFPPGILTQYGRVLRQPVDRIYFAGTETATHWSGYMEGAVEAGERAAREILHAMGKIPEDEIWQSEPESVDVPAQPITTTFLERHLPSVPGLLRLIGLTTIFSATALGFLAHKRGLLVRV

SMILES | target | test | test system | setting | inhibition
O=C(Nc1ccc(Cl)cc1)c1cccc(S(=O)(=O)N2CCOCC2)c1 | Ectonucleoside triphosphate diphosphohydrolase 3 | enzyme activity, inhibitor, absorbance | – | 100 µM | 9%
C#CCSc1nc(Sc2nnnn2-c2ccccc2)c2nnn(Cc3ccccc3Cl)c2n1 | CDK4 with cyclin D3 | enzyme activity, inhibitor | – | 10 µM | < 15%
Clc1ccc(NN=C(c2ccccc2)c2ccccn2)nc1 | Lysine-specific demethylase 4A (KDM4A, Homo sapiens, UniProt O75164) | demethylase activity, inhibitor, 1H NMR | – | 160 µM, together with: H3K9me3 peptide | inhibited
O=C(/C=C/c1ccc2c(c1)OCCO2)c1ccco1 | Amine oxidase [flavin-containing] B (MAOB, Homo sapiens, UniProt P27338) | enzyme activity, inhibitor, fluorescence | – | 1 µM | 32.5%
O=C(Nc1cnc2c(c1)CCCC2)c1cn2c(n1)CN(C(=O)c1cc3cc(-c4ccccc4)ccn3n1)CC2 | Programmed cell death 1 ligand 1, with PD-1 (CD274, Homo sapiens, UniProt Q9NZQ7) | PD-1/PD-L1 binding, TR-FRET | – | 5 and 25 µM | no inhibition
C[C@@]12CC[C@@H]3c4ccc(O)cc4CC[C@H]3[C@@H]1CCC2=O | AKR1C2 | enzyme activity, inhibitor, absorbance | – | 100 µM, pH 9 | 65%
CC[C@H](C)[C@H](NC(=O)[C@H](Cc1ccccc1)C[C@H](O)[C@@H](N)COc1ccc(-c2ccc(F)cc2)c(OCCCOC)c1)C(=O)NCc1ccc(Cl)cc1 | Beta-secretase 1 (BACE1, Homo sapiens, UniProt P56817) | Aβ production, ELISA | HEK293 expressing APP751 Swedish | 1 µM | 19%
Cc1cccc(/C=C/C(=O)c2cnn(-c3ccccc3)c2C)c1 | AMY2 | enzyme activity, inhibitor, absorbance | – | 500 µM | 45.4%
C[C@]12CC[C@@H]3c4cc(I)c(O)c(I)c4CC[C@H]3[C@@H]1CCC2=O | AKR1C2 | enzyme activity, inhibitor, absorbance | – | 10 µM, pH 9 | 21.3%
C/C(=N\OCCN(C)Cc1ccccc1)c1cccc(C(F)(F)F)c1 | Sigmar1 | radioligand binding | – | 10 µM | 67.9%
CC[C@H](C)[C@H](NC(=O)[C@H](CCCNC(=N)N)NC(=O)[C@H](CCCCN)NC(=O)[C@@H]1CCCN1C(=O)[C@@H]1CCCN1CCCN(CC[C@H](N)C(=O)O)C[C@H]1O[C@@H](n2cnc3c(N)ncnc32)[C@H](O)[C@@H]1O)C(=O)N[C@@H](C)C(N)=O | Histone-lysine N-methyltransferase EHMT2 (EHMT2, Homo sapiens, UniProt Q96KQ7) | enzyme activity, inhibitor | – | 100 µM | < 30%
COc1ccc(-c2nc(C(=O)NCc3ccc(C)cc3)c(O)c3ncccc23)c(OC)c1 | Tripartite terminase subunit 3 C-terminal nuclease domain | endonuclease activity, ELISA | – | 10 µM | 69 ± 1.6%
O=C(O[C@H](CO)C(F)(F)F)N1C[C@@H]2[C@H](C1)[C@H]2c1ccn(-c2ccc(F)nc2)n1 | Lysophosphatidylserine lipase ABHD12 (Abhd12, Mus musculus, UniProt Q99LR1) | ABPP | mouse brain lysate | 0.2 µmol/L | no inhibition
COc1cc(/C=N\C(=S)NNC(=O)CC2C(=O)c3ccccc3C2=O)cc(OC)c1OC | ELANE | enzyme activity, inhibitor, fluorescence | – | 100 µM | 35%
CN(C(=O)CCc1nc(CN2CCN(C(=O)c3ccc(Br)o3)CC2)no1)C1CCCCC1 | Sodium channel protein type 9 subunit alpha (SCN9A, Homo sapiens, UniProt Q15858) | sodium current, whole-cell patch clamp | HEK293, stable | 20 µM | 2 ± 2%
C[C@@]12CC[C@@H]3c4ccc(O)c(Br)c4CC[C@H]3[C@@H]1CCC2=O | AKR1C2 | enzyme activity, inhibitor, absorbance | – | 100 µM, pH 9 | 98.3%
O=C(CCCCCCNc1ccc(C(=O)Nc2ccc(Cl)c(NC(=O)c3cccc(Cl)c3)c2)cn1)NO | Protein smoothened (SMO, Homo sapiens, UniProt Q99835, D473H) | BODIPY-cyclopamine binding, competition binding | HEK293T expressing SMO | concentration not given, together with: BODIPY-cyclopamine | inhibited
CN(Cc1cc(C2CC2)on1)C(=O)c1cccc(-c2ccncc2)c1 | Acetyl-CoA synthetase (Cryptococcus neoformans, UniProt J9VFT1) | enzyme activity | – | concentration not given | inactive
Oc1cc(O)c2c(c1)O[C@H](c1cc(O)c(O)c(O)c1)[C@H](O)C2 | PNLIP | enzyme activity, inhibitor | – | 10 µM | 89.5%
C/C(=N\OCCCCN1CCOCC1)c1ccc(C(F)(F)F)cc1 | Sigmar1 | radioligand binding | – | 1 µM | 57.8%
O=C(O)c1cccc(S(=O)(=O)N2CCOCC2)c1 | Ectonucleoside triphosphate diphosphohydrolase 8 (Homo sapiens, UniProt Q5MY95) | enzyme activity, inhibitor, absorbance | – | 100 µM | 9%
O=C(O[C@@H]1Cc2c(O)cc(O)cc2O[C@@H]1c1cc(O)c(O)c(O)c1)c1cc(O)c(O)c(O)c1 | PNLIP | enzyme activity, inhibitor | – | 10 µM | 93.8%
CC(C)Cn1cc(-c2nc(Nc3ccc(OCCCCCCC(=O)NO)cc3)ncc2F)nn1 | CDK4 with cyclin D3 | enzyme activity, inhibitor, TR-FRET | – | 5 µM | 62.6%
COc1ccc(NC(=O)c2cn(Cc3ccc(F)cc3)cc(O)c2=O)cc1 | Tripartite terminase subunit 3 C-terminal nuclease domain | endonuclease activity, inhibitor, ELISA | – | 20 µM | 7%
COc1cc(C(=O)NC2CCC(N3CCN(CC4CCC5(CCCC5)C4)CC3)CC2)c(F)cc1Nc1ncc2c(n1)N(C1CCCC1(F)F)CC(F)(F)C(=O)N2C (stereo not drawn) | Tyrosine-protein kinase JAK1 (JAK1, Homo sapiens, UniProt P23458) | cell-free assay, TR-FRET | – | 10 µM | 0.9%
O=[N+]([O-])c1cccc(-n2c(-c3ccc(Cl)cc3)cs/c2=N/N=C/c2ccc(N3CCOCC3)cc2)c1 | Carbonic anhydrase 2 (CA2, Bos taurus, UniProt P00921) | enzyme activity, inhibitor, absorbance | – | 500 µM | 69.8%
COc1ccc(NC(=S)Nc2cccc3cccnc23)cc1 | Beta-glucuronidase (uidA, Escherichia coli, UniProt P05804) | enzyme activity, inhibitor, absorbance | – | 100 µM | 52.6%

SMILES | target | test | test system | setting | inhibition
COc1ccc2c(c1)CC[C@@H]1[C@@H]2CC[C@]2(C)C(=O)CC[C@@H]12 | AKR1C2 | enzyme activity, inhibitor, absorbance | – | 100 µM, pH 9 | 70%
C[C@@H](O)[C@H](NC(=O)CP(=O)(O)OC[C@H]1O[C@@H](n2cnc3c(N)ncnc32)[C@H](O)[C@@H]1O)C(=O)O | Threonylcarbamoyl-AMP synthase (tsaC, Escherichia coli, UniProt P45748) | TC-AMP formation, inhibitor | – | concentration not given | no inhibition
CC(C)(O)CC(=O)CC(C(=O)O)C1CC[C@]2(C)C1CCC1[C@@]3(C)CC[C@H](O)C(C)(C)C3CC[C@]12C (stereo partly drawn) | AMY2 | enzyme activity, inhibitor, absorbance | – | 250 µM | 26.8%
CC(=O)Nc1cc(COc2c(Cl)cc(CC(N)C(=O)O)cc2Cl)c2oc(-c3ccccc3)nc2c1 (stereo not drawn) | Large neutral amino acids transporter small subunit 3 (Homo sapiens, UniProt O75387) | leucine uptake | Xenopus oocytes | 1 and 10 µM, 30 min, together with: L-[14C]leucine 50 µM | no inhibition
O=C(O)c1cc(S(=O)(=O)N2CCOCC2)ccc1Cl | Ectonucleoside triphosphate diphosphohydrolase 3 | enzyme activity, inhibitor, absorbance | – | 100 µM | 46%
COc1ccc(C(=O)NO)cc1NC(=O)c1ccc(-c2ccccc2)cc1 | hdac10 | – | – | 1 µM | < 10%
N#Cc1c(NC(=O)CN2CCOCC2)sc2c1CCC(c1ccccc1)C2 (stereo not drawn) | PDK1 | enzyme activity, inhibitor, ATP luminescence | – | 100 µg/mL | 21.4%
O=C(NO)c1ccc(Cl)c(NC(=O)c2cccc(OCc3ccccc3)c2)c1 | hdac10 | – | – | 0.1 µM | 11%
C/C(=N\OCCN1CCCCC1)c1cccc(C(F)(F)F)c1 | Sigmar1 | radioligand binding | – | 10 µM | 104%
C[C@@]12CC[C@@H]3c4cc(Br)c(O)cc4CC[C@H]3[C@@H]1CCC2=O | AKR1C2 | enzyme activity, inhibitor, absorbance | – | 100 µM, pH 9 | 65%
C/C(=N\OCCCN1CCCCC1)c1ccc(S(C)(=O)=O)cc1 | Sigmar1 | radioligand binding | – | 10 µM | 91.3%
O=C(NO)c1coc(-c2ccc3ccccc3c2)n1 | hdac10 | – | – | 0.1 µM | < 10%
O=C1c2c(O)cc(O)cc2OC2(c3ccc(O)cc3)Oc3cc(O)c4c(c3C12O)OC(c1ccc(O)cc1)C(O)C4 (stereo not drawn) | PNLIP | enzyme activity, inhibitor, absorbance | – | 250 µM | 69.5%
C[C@]12CC[C@@H]3c4cc(Cl)c(O)cc4CC[C@H]3[C@@H]1CCC2=O | AKR1C2 | enzyme activity, inhibitor, absorbance | – | 100 µM, pH 9 | 88%
O=c1c(-c2nc3ccccc3s2)cc2c(n1NS(=O)(=O)c1ccc(Cl)cc1)CCCCCC2 | Ubiquitin carboxyl-terminal hydrolase 7 (USP7, Homo sapiens, UniProt Q93009) | enzyme activity, inhibitor, fluorescence | – | 100 µg/mL | 71.9%
O=C1CC(=O)c2cc(S(=O)(=O)n3cnc4ccccc43)ccc21 | ELANE | enzyme activity, inhibitor, fluorescence | – | 100 µM | 91.1%
O=C(c1ccc(Oc2cccc3ccccc23)c([N+](=O)[O-])c1)C(Cl)Cl | PDK1 | enzyme activity, inhibitor, ATP luminescence | – | 10 µM | 26.5 to 30.1%
COc1ccc(Br)c(/C=C/C(=O)NO)c1 | hdac10 | – | – | 1 µM | 39%
O=C(CCCCCCN1CCN(c2ccc(Nc3ncc(F)c(-c4cn(C5CCCC5)nn4)n3)cc2)CC1)NO | CDK4 with cyclin D3 | enzyme activity, inhibitor, TR-FRET | – | 50 nM | 73.5%
Brc1ccc2c(c1)[nH]c1ncnc(Nc3ccccc3)c12 | Protein-tyrosine kinase 6 (PTK6, Homo sapiens, UniProt Q13882) | enzyme activity, inhibitor, ADP detection | – | 2 µM | 17.1%
O=C(/C=C/c1ccccc1Cl)NO | hdac10 | – | – | 0.1 µM | 37%
CCOC(=O)C1=C(C)NC2=C(C(=O)CC(C)(C)C2)C1c1ccc(OCC(=O)NN=Cc2cc(Br)c(O)c(Br)c2)cc1OCC(=O)NN=Cc1cc(Br)c(O)c(Br)c1 (stereo not drawn) | Alpha-glucosidase MAL32 (MAL32, Saccharomyces cerevisiae, UniProt P38158) | inhibitor | – | 0.5 mM, pH 6.8, 37 °C | 92.7%
Oc1cccnc1O | 1-deoxy-D-xylulose 5-phosphate reductoisomerase (Escherichia coli K-12, UniProt P45568) | enzyme activity, inhibitor, absorbance | – | 100 µM | 91.4%
COC(=O)C(Cc1cccc(C)n1)NC(=O)CCCCCCC(=O)NO (stereo not drawn) | hdac10 | – | – | 1 µM | 51%
C/C(=N\OCCN1CCCC1)c1ccc(C(F)(F)F)cc1 | Sigmar1 | radioligand binding | – | 10 µM | 94.2%
COc1cc(O)c(C(=O)/C=C/c2ccccc2)c(O)c1OC | α-glucosidase (Saccharomyces cerevisiae) | inhibitor | – | 10 µg/mL, together with: pNPG | 37.2 ± 2.8%
CN(C)c1ccc(C(=O)NCc2ccc(C(=O)NO)cc2)cc1 | hdac10 | – | – | 0.1 µM | < 10%
